Assay results collected from several papers.
Numbered parts are unrelated; each lists some results of a single study.

Study 1 — technique: protein binding microarray; molecule type: double-stranded DNA, one strand shown; sample: in vitro; tested at: not given; relative to: not given; direction: higher = stronger binding; measurement: E-score
Target: Histone acetyltransferase KAT6A, both winged helices, GST fusion (KAT6A, Homo sapiens, UniProt Q92794, residues 1-181)
Notes: 8-mer, flanks averaged, mean of 2 arrays, mostly near background
Target sequence (chain): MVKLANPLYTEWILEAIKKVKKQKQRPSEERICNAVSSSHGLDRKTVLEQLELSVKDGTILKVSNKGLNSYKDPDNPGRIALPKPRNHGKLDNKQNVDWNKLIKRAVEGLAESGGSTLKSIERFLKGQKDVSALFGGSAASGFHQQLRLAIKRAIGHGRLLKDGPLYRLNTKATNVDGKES
AACTTTAA: -0.0285
ACGACTCA: -0.168
AGCCATCA: -0.0766
AGAACTCG: -0.119
ATAGATAA: -0.103
CATGCAAC: -0.0332
AAGTTCTG: -0.0276
GCTCAAGC: -0.0184

Study 2 — technique: protein-binding microarray; molecule type: double-stranded DNA, one strand shown; sample: in vitro; tested at: 250 nM; notes: 60-bp whole probe; added: salmon DNA 0.4 mg/ml; relative to: random background probes; direction: higher = stronger binding; measurement: log fluorescence; all sequences stand within: GCCTAGCAC … GTCTTGATTCGCTTGACGCTGCTG
Target: Interferon regulatory factor 5, full length, phosphomimetic (IRF5, Homo sapiens, UniProt Q13568-2, residues 1-514, K96S/S451D/S453D/S456D/S462D)
CAGGAAATCAACTTTTTTTAAGTGCTA: 0.476 z-score
TTAGGACTGCTTTTCCTTGAGTGCTAG: -0.0725 z-score
TTAGGTATAGGTTTCGGTTAGTGCTAG: 8.55 z-score
ACCATTTTTTTTCACTATTGGTGCTAG: 2.38 z-score
TTAGGTTTCGGTATCGGTCAGTGCTAG: 11.3 z-score
TACGGTATCGACTTTCGGGACGTGCTA: 6.74 z-score

Study 3 — technique: RNA Bind-n-Seq; molecule type: RNA; sample: in vitro; tested at: 365 nM; relative to: no-protein control; direction: higher = stronger binding; measurement: RBNS enrichment (R)
Target: RNA binding protein fox-1 homolog 2, RRM domain, GST-SBP tag (RBFOX2, Homo sapiens, UniProt O43251-10, residues 100-194)
Notes: natural RNA segment, single round, ends assumed
All sequences stand within: GGGAGUUCUACAGUCCGACGAUC … UGGAAUUCUCGGGUGCCAA
Residues (chain): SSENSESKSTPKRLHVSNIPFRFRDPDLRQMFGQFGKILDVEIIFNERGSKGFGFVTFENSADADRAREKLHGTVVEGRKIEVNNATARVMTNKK
UGGGAUCAAACCCAGGACAGCAUUCAUCCUAGGCAAAUGCUGGACCAUACCCUCAGCCCAUCACCAAUAUUUUAACUGAGGCAUUGCAUUAAACCACACACCACACACAC: 2.12
GCUGGCACAUUGAUCCCAUUUCUGGAACAUUUCCUACUUCCAGAAUUCCGUAUGUUCCUUAGACAUUACCCCCACUUAACCUCCCUUCCUCUGAUAUGCCUUGUAGCUAA: 1.21
UUGUUAGGCCCACCACACGAGUUUACAGGUCUGUGGCAAUACUCUUAACUCAGUAAAGAUGGAAGUGGUAAAGAAACCAAGUAGACAGUAGGGGCUCUUGAGAGUAUUGA: 1.23
UUCUUAACAAGCCACUCUGUCCCAUAACAUGCACUUGGAAUCUCUCCUAAGUUCCAGAGGCCCCACUGUUCCAGUUUCAAGCCUUCAUUUUGGAGUCUGUUUGGGAACUU: 0.376
UGUUUUGUUUUCCUUUUUCUUUAAAUCUUGGACUUUAAACCCUACCUGUGUGAUUCAGUAGGGUUUGAGACUUACGUGUGAUACUGACAGGUAAGCAACAGUGCUAGCAU: 0.245
CCCAGGCCCAAAGGAGACAACUAACUAAAGUAGUGAGAUAGAUUCUAAGGGCAAACAUUUUUCCAAGUCUUGCCAUAUUUCAAGCAAAGAGGUGCCCAGGCCUGAGGUAC: 0.503
UCCUCUGAACCAUGAUGCAGUAGGUAAGAAGUUAUUAUGCGUAUAUACAUAUAUACAUUCAUAUACGACAAAGUAGGAGCUGUCCCCUUAGGAUGCAUAGCUGCCCCUAG: 0.378

Further values, each from its own experiment
PhoQ, residues 284 288 289 292 302 303 TASMAF
fold induction (PhoP, residues 12 14 15 18 19 LFHKL (Escherichia coli, UniProt P23836); Sort-seq, refers to: YFP reporter; E. coli; PhoQ-PhoP variant library, added: 10 µM Mg2+; relative to: high Mg2+ state, higher = stronger signaling): 12.1

Some of these lines once more (study 3):
UGUUUUGUUUUCCUUUUUCUUUAAAUCUUGGACUUUAAACCCUACCUGUGUGAUUCAGUAGGGUUUGAGACUUACGUGUGAUACUGACAGGUAAGCAACAGUGCUAGCAU: 0.245
UUCUUAACAAGCCACUCUGUCCCAUAACAUGCACUUGGAAUCUCUCCUAAGUUCCAGAGGCCCCACUGUUCCAGUUUCAAGCCUUCAUUUUGGAGUCUGUUUGGGAACUU: 0.376
UUGUUAGGCCCACCACACGAGUUUACAGGUCUGUGGCAAUACUCUUAACUCAGUAAAGAUGGAAGUGGUAAAGAAACCAAGUAGACAGUAGGGGCUCUUGAGAGUAUUGA: 1.23
